Results collected from several papers.
Lines come from different studies, so protocols differ. ± gives the spread as reported.

NS(=O)(=O)OC[C@@H]1C[C@@H](n2ccc3c(N[C@H]4CCc5ccccc54)ncnc32)C[C@@H]1O  Cmax (human; intravenous, 20 mg/m^2 single dose, day 1): 178 ng/mL
COc1cc2ncnc(Nc3ccc(F)c(Cl)c3)c2cc1OCCCN1CCOCC1  Cmax (human, plasma; oral, 250 mg, with: vorinostat 300 mg): 240 ± 98 ng/mL
CN1CC[C@H](c2c(O)cc(O)c3c(=O)cc(-c4ccccc4Cl)oc23)[C@H](O)C1  Cmax (human patients, phase I, plasma; intravenous, 50 mg/m^2, lowest of range): 2220 nM
CC(C)(C(=O)NCC(F)(F)C(F)(F)F)C(=O)N[C@@H]1C(=O)Nc2ccccc2-c2ccccc21  Cmax (human, plasma; oral, 20 mg, day 1): 241 ng/mL
Cc1cc(C)c2c(c1)[C@@H](N(Cc1cc(C(F)(F)F)cc(C(F)(F)F)c1)c1nnn(C)n1)CCCN2C[C@H]1CC[C@H](C(=O)O)CC1  Cmax (human, plasma; oral, 100 mg once daily, steady state, geometric mean): 377 ng/mL
Cc1[nH]c(/C=C2\C(=O)Nc3ccccc32)c(C)c1CCC(=O)O  Cmax (human patients; oral, 400 mg/m^2 twice daily, after meal, dose 55): 8580 ± 4550 ng/mL
CC(C)c1nc(N(C)S(C)(=O)=O)nc(-c2ccc(F)cc2)c1/C=C/[C@@H](O)C[C@@H](O)CC(=O)O  Cmax (humans, plasma; oral, 20 mg, geometric mean, with: fenebrutinib 200 mg twice daily): 43.1 ng/mL
C[C@H]1CN(C2COC2)CCN1c1ccc(Nc2cc(-c3ccnc(N4CCn5c(cc6c5CC(C)(C)C6)C4=O)c3CO)cn(C)c2=O)nc1  Cmax (healthy human, both sexes, plasma; oral, 100 mg, with: itraconazole oral solution 200 mg, steady state): 192 ± 64.7 ng/mL
CN1CC[C@H](c2c(O)cc(O)c3c(=O)cc(-c4ccccc4Cl)oc23)[C@H](O)C1  Cmax (human advanced solid tumours, plasma; intravenous, 50 flavopiridol, with: oxaliplatin 85 + leucovorin/5-FU): 1800 ± 400 nM
CC(C)(Sc1ccncc1-c1ccc(C#N)c2ccccc12)C(=O)O  Cmax (human, plasma; oral, 10 mg, with: febuxostat 80 mg): 16.1 ng/mL
CNCc1ccc(-c2[nH]c3cc(F)cc4c3c2CCNC4=O)cc1  Cmax (human patients, plasma; oral, 840 mg twice daily, day 1, arithmetic mean): 1380 ng/mL
COc1c(OCCCN2CCOCC2)ccc2c1N=C(NC(=O)c1cnc(N)nc1)N1CCN=C21  Cmax (human cancer patients, plasma; intravenous, 0.6 mg/kg weekly, cycle 1 day 1, compound alone, geometric mean): 403 ng/mL
CC(C)NC[C@@H](C(=O)N1CCN(c2ncnc3c2[C@H](C)C[C@H]3O)CC1)c1ccc(Cl)cc1  Cmax (human, hepatic impairment Moderate (Child-Pugh), plasma; oral, 100 mg single, geometric mean): 89.1 ng/mL
C#C[C@]1(CO)O[C@@H](n2cnc3c(N)nc(F)nc32)C[C@@H]1O  Cmax (human, plasma; oral, 30 mg once weekly, week 3): 637 nM
CN1CCc2nc(C(=O)N[C@@H]3C[C@@H](C(=O)N(C)C)CC[C@@H]3NC(=O)C(=O)Nc3ccc(Cl)cn3)sc2C1  Cmax (healthy humans ABCB1 rs1045642 CT, plasma; oral, 60 mg single dose): 268 ± 95.2 ng/mL
CN(Cc1cnc2nc(N)nc(N)c2n1)c1ccc(C(=O)N[C@@H](CCC(=O)O)C(=O)O)cc1  Cmax (human, plasma; oral, dose not given, day 8, mean, with: isavuconazole co-administration): 140 ng/mL
CN1C(=O)[C@@H](NC(=O)c2nnc(Cc3ccccc3)[nH]2)COc2ccccc21  Cmax (human male, plasma; oral, 60 mg twice daily, day 14): 845 ng/mL
CCCCOC(=O)N1CCN(C(=O)[C@H](CP(=O)(O)O)NC(=O)c2cc(N3CC[C@H](OC)C3)nc(-c3ccccc3)n2)CC1  Cmax (healthy human, plasma; subcutaneous, 4 mg, placebo i.v.; geometric mean): 177 ng/mL

Some of these lines once more:
NS(=O)(=O)OC[C@@H]1C[C@@H](n2ccc3c(N[C@H]4CCc5ccccc54)ncnc32)C[C@@H]1O  Cmax (human; intravenous, 20 mg/m^2 single dose, day 1): 178 ng/mL
COc1cc2ncnc(Nc3ccc(F)c(Cl)c3)c2cc1OCCCN1CCOCC1  Cmax (human, plasma; oral, 250 mg, with: vorinostat 300 mg): 240 ± 98 ng/mL
